Results from different studies.
Parts stem from different laboratories: compare values within a part only. Positions count from the first letter of the parent shown.

Study 1
Target: CCNA1, cyclin fold, Cln2 fusion (human)
Method: yeast growth competition, sequencing
Medium: yeast
Setting: weak parent motif
Relative to: not given
Direction: higher = stronger binding
Parent: CDKN1A docking peptide (human); SKACRRLFGPVDS
`SKACRRLFGCVDS [P10C]` — result for “normalised enrichment score”: 0.0667.
`SKACRRLFGHVDS [P10H]` — result for “normalised enrichment score”: 0.0334.
Under “normalised enrichment score”, `SKACRELFGPVDS [R6E]` is recorded as 0.297.
Under “normalised enrichment score”, `SKACNRLFGPVDS [R5N]` is recorded as 0.199.
`SKICRRLFGPVDS [A3I]`: “normalised enrichment score” 0.374.
Under “normalised enrichment score”, `SKACRTLFGPVDS [R6T]` is recorded as 0.55.
`SKACRRLFFPVDS [G9F]` — result for “normalised enrichment score”: 0.526.
For `SKACHRLFGPVDS [R5H]`, “normalised enrichment score” read 0.0518.
For `SKACRRLFYPVDS [G9Y]`, “normalised enrichment score” read 1.38.
Under “normalised enrichment score”, `SKAFRRLFGPVDS [C4F]` is recorded as -0.502.
Under “normalised enrichment score”, `SKACRRFFGPVDS [L7F]` is recorded as 0.00666.
Under “normalised enrichment score”, `SKWCRRLFGPVDS [A3W]` is recorded as -0.378.

Study 2
Target: ABI1, truncated, D143A, DHFR fusion (Arabidopsis thaliana)
Method: DHFR PCA, deep sequencing
Medium: yeast
Setting: methotrexate growth selection, single substitutions
Together with: (+)-ABA 1.4 µM
Relative to: wild-type fitted maximum
Direction: higher = stronger binding
Parent: PYL1, truncated, DHFR fusion (Arabidopsis thaliana); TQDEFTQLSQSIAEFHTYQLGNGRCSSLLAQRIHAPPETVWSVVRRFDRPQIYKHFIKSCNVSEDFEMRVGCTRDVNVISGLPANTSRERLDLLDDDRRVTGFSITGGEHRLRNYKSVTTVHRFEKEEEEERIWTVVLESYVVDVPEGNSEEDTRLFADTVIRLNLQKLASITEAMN; partner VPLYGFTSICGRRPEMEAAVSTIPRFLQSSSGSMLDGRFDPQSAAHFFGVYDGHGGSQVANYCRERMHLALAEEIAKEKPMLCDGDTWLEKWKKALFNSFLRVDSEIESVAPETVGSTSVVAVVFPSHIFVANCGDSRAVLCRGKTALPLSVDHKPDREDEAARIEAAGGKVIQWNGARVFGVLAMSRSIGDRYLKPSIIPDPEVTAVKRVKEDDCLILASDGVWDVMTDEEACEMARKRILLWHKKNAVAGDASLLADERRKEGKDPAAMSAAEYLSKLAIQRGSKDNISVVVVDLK
`T106M`: “relative binding score” 58.8%.
`E4G` — result for “relative binding score”: 35.9%.
Under “relative binding score”, `L94V` is recorded as 7.76%.
`I33Q`: “relative binding score” -0.289%.
For `Q167N`, “relative binding score” read 37.7%.
Under “relative binding score”, `Q51P` is recorded as -11.9%.

Study 3
Target: RNA binding protein fox-1 homolog 2, RRM domain, GST-SBP tag (RBFOX2, Homo sapiens, UniProt O43251-10, residues 100-194)
Method: RNA Bind-n-Seq
Molecule type: RNA
Medium: in vitro
Tested at: 365 nM
Setting: natural RNA segment, single round, ends assumed
Relative to: no-protein control
Direction: higher = stronger binding
`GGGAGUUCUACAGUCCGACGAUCAUACAGCAGUCAGAGAUGAGUAUACUAGAAUCAUGGAUUGCUGGAGGUCUUUUAAUCUGAUGUUCUCAGAAGGGGGUGGAUUUAAAUCCUGAAAUAAAUAUUUCAACACAUGGAAUUCUCGGGUGCCAA` — result for “RBNS enrichment (R)”: 0.621.
For `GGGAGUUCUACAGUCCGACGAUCAGAGUUUCAGAAGCCCCCACAUGGGGGCUCUAGGAAUGCCGGCAUGCUGGUCUUUCCGACCUGGUGCUCUUCUGCUGGGGGACUGAGGCUGGCCCUCAUUCGGGGUCGGGUGGAAUUCUCGGGUGCCAA`, “RBNS enrichment (R)” read 0.504.
`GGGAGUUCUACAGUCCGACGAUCAUCUGGUAAUAAUACCAUGCAAUAUAGCGUUGUAUACCAACUUAGUGCAUUUUAUACUGUAUUAAAUAUGGAGAUACUUCUAAUGCCUCUCUAAAAUUAAAUUUUACAUAUGGAAUUCUCGGGUGCCAA` — result for “RBNS enrichment (R)”: 0.38.
`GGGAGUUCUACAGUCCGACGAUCUUCUGUCCUGGACAGCAUCAAAGAGGGCUUCUCCUUCCAGCCCAAGCUGCGUUCUCCCAGACGCCUUAACAGCAGUCCCCGCACCCCCAUCAGCCCCCUCAAGUUCUCUCUGGAAUUCUCGGGUGCCAA` — result for “RBNS enrichment (R)”: 0.937.
`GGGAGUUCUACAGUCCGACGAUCGCUGCCUUGCUCGCUGUUAUAUUAAGUAGAAGGAGUUUUAGGAUAUUCGAGACAGUGCUUCUGGAGGAGCCAUUGGAAAGACUGGAGAAGAUUCUAAUGGAUAGGAUUUAUGGAAUUCUCGGGUGCCAA` — result for “RBNS enrichment (R)”: 1.42.
Under “RBNS enrichment (R)”, `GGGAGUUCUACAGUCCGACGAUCGCACUGGUCUGACUUUAUAAAUUAUUUAAUAAAAUGAACUAUUAUCAAAUAAAACGUAUGAAUCAGUCUUUAUAGUUGUCUUUUAAUAAAACAGGCAUUUGAUAAUGUUAUGGAAUUCUCGGGUGCCAA` is recorded as 1.06.
Under “RBNS enrichment (R)”, `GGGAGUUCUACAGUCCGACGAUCAGACAACAUCUGCUUACCUGGCAGAACUCCCCACUCCACUCCCCCAGGUGGGCUGGGUGGAAGGACCCUCAGCCACCAAGAACUGACGCCCUCAUGGCCCUAGACUAUGGUGGAAUUCUCGGGUGCCAA` is recorded as 0.474.
`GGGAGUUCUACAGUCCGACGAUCGCCUUAGCAACUGCCCAGGUCCUGAGAAAUGGAGGGCUUGUUCAUGGGGUUAGAAACCUGCAAAGGCAGCCGGGCGUGGUGGCGCAUGCCUUUAAUCCCAGCACUCGGGAUGGAAUUCUCGGGUGCCAA` — result for “RBNS enrichment (R)”: 0.677.

Other studies, line by line
`PhoQ, residues 284 288 289 292 302 303 AGHLVA` has a fold induction of 16.6 (PhoP, residues 12 14 15 18 19 SQCLL (Escherichia coli, UniProt P23836); Sort-seq, item: YFP reporter; E. coli; PhoQ-PhoP variant library, together with: 10 µM Mg2+; relative to: high Mg2+ state, higher = stronger signaling).

Some of these lines once more (study 3):
`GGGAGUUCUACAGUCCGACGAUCAUACAGCAGUCAGAGAUGAGUAUACUAGAAUCAUGGAUUGCUGGAGGUCUUUUAAUCUGAUGUUCUCAGAAGGGGGUGGAUUUAAAUCCUGAAAUAAAUAUUUCAACACAUGGAAUUCUCGGGUGCCAA` — result for “RBNS enrichment (R)”: 0.621.
For `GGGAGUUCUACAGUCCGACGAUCAGAGUUUCAGAAGCCCCCACAUGGGGGCUCUAGGAAUGCCGGCAUGCUGGUCUUUCCGACCUGGUGCUCUUCUGCUGGGGGACUGAGGCUGGCCCUCAUUCGGGGUCGGGUGGAAUUCUCGGGUGCCAA`, “RBNS enrichment (R)” read 0.504.
`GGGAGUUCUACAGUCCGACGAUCAUCUGGUAAUAAUACCAUGCAAUAUAGCGUUGUAUACCAACUUAGUGCAUUUUAUACUGUAUUAAAUAUGGAGAUACUUCUAAUGCCUCUCUAAAAUUAAAUUUUACAUAUGGAAUUCUCGGGUGCCAA` — result for “RBNS enrichment (R)”: 0.38.
`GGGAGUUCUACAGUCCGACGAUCUUCUGUCCUGGACAGCAUCAAAGAGGGCUUCUCCUUCCAGCCCAAGCUGCGUUCUCCCAGACGCCUUAACAGCAGUCCCCGCACCCCCAUCAGCCCCCUCAAGUUCUCUCUGGAAUUCUCGGGUGCCAA` — result for “RBNS enrichment (R)”: 0.937.
